Published values collected from several papers.
A part holds a random share of what one study measured.

Series 1
Target: Sal-like protein 4, full length isoform B (SALL4, Homo sapiens, UniProt Q9UJQ4-2, residues 1-616)
Technique: universal PBM
Molecule type: double-stranded DNA, one strand shown
Sample: in vitro
Tested at: not given
Setting: 8-mer, flanks averaged, mean of replicates
Reading: higher = stronger binding
Residues (chain): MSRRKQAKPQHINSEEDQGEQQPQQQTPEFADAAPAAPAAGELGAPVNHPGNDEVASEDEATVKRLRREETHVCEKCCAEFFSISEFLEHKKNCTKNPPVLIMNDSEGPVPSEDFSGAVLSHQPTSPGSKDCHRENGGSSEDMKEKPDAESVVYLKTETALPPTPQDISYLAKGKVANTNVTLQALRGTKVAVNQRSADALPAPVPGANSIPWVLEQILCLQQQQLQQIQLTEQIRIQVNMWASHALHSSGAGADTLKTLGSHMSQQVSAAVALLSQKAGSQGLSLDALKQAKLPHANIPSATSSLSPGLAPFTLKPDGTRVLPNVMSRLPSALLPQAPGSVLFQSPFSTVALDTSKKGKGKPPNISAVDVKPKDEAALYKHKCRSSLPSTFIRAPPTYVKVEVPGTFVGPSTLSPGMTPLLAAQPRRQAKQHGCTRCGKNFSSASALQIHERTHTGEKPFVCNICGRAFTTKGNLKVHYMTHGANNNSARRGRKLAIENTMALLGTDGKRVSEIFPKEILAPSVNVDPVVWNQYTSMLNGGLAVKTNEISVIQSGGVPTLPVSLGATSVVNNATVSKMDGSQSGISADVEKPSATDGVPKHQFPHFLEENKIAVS
| Sequence | E-score |
| --- | --- |
| GACTTACC | -0.0624 |
| AACGGTGC | -0.0568 |
| CTACGTAC | 0.127 |
| AAAGTTTC | 0.106 |
| ACTGGGAG | -0.294 |
| AGCGTCTA | -0.0598 |
| GGGCAAAC | -0.192 |
| AGTCCGTA | -0.0225 |
| GAGGGTCA | -0.272 |
| GAGGCATC | -0.205 |
| ATGTTCTC | 0.114 |
| CAGCAATC | 0.0225 |
| AAATTTGG | 0.106 |
| CAAGGTGA | -0.19 |
| GTACAGTA | 0.177 |
| ACTGGCTA | -0.147 |
| ACGAGCCG | -0.229 |
| CAGGAATC | 0.00517 |
| AAAAGCTA | 0.121 |
| AGTCCCTA | 0.0309 |
| TGACATAA | 0.321 |

Series 2
Target: Histone acetyltransferase KAT6A, both winged helices, GST fusion (KAT6A, Homo sapiens, UniProt Q92794, residues 1-181)
Technique: protein binding microarray
Molecule type: double-stranded DNA, one strand shown
Sample: in vitro
Tested at: not given
Setting: 8-mer, flanks averaged, mean of 2 arrays, mostly near background
Reference: not given
Reading: higher = stronger binding
Residues (chain): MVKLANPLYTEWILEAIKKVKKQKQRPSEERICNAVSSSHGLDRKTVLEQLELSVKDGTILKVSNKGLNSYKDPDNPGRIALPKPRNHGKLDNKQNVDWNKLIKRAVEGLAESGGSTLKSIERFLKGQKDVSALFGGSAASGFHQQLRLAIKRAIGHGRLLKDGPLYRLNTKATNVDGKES
| Sequence | E-score |
| --- | --- |
| CCGCTGGC | 0.188 |
| ATCTTCGC | -0.0358 |
| AACTTTGG | -0.0901 |
| AATACGAG | -0.0636 |
| ATGGAATG | 0.0187 |
| AGACTCAC | -0.242 |
| CCGGTGCC | 0.191 |
| GCTTTGAC | -0.0182 |
| TAGTAGAA | -0.0645 |
| TATTACCA | -0.109 |
| GAGGTAAC | 0.0299 |
| CCTACCAC | -0.028 |
| AAGACCAA | -0.032 |
| GACCCGTC | 0.175 |
| AGTTAACG | 0.148 |
| TAGCCGAA | 0.0423 |

Series 3
Target: RING finger protein unkempt homolog, zinc fingers 1-6, GST-SBP tag (UNK, Homo sapiens, UniProt Q9C0B0, residues 30-357)
UniProt Q9C0B0, sequence (30-357, looked up): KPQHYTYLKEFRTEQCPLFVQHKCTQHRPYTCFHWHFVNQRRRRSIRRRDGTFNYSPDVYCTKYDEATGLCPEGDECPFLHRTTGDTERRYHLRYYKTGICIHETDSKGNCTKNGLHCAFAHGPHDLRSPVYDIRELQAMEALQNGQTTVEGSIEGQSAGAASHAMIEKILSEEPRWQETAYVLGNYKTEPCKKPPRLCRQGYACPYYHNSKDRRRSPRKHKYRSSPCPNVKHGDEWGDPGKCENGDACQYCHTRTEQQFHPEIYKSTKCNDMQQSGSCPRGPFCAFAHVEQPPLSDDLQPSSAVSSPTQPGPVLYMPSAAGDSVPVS
Technique: RNA Bind-n-Seq
Molecule type: RNA
Sample: in vitro
Tested at: not given
Setting: RNA with constant flanks, human and mouse sites, ends assumed
Reference: input RNA pool
Reading: higher = stronger binding
| Sequence | bound/input enrichment [ratio] |
| --- | --- |
| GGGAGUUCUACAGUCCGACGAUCGUUAUUUUCAUGUGGUCAUUGCUGGCCCUCAGGAUUCCCCCUUUGAGGGAGGGACUUUUAAACUUGAACUAUUCCUUCCAGAAGAAUACCCAAUGGCAGCCCCUAAAGUACGUUUCAUGACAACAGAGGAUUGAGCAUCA | 0.216 |
| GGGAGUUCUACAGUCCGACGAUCUGUGAUGAAUGUGGGAAGGCUUUCAGGAACAGCUCAGGCCUCAUAGUGCAUAAAAGGAUCCACACAGGAGAGAAACCUUACAAGUGUGAUGUCUGUGGCAAAGCAUUCAGCUAUAGCUCACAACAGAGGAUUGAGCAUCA | 0.147 |
| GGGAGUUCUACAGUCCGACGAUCGACAGUGGAGAAGAGGUGGACUUGGUUAAGGAAGCGGACGUCCCCUCAGCCAUUAGUCUCCUUAGGUUUUUCCUGCAGGAGCUCCCUGAGCCCGUCAUACCUGGCAGCUUGCAUAUUCACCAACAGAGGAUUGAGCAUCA | 0.247 |
| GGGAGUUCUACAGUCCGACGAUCCCCUCCGCUGGGAACGAUGGCUUCUGCCUAGUACCUAUCCUUGUGUUUCUGAUGCAGUGGUAGCAUUGGUUCAAGUUCUCUCCUGCUGUGGUCAGAGUUGCUUCGAUGUUGGCCAAGUGCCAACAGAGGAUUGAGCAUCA | 0.259 |
| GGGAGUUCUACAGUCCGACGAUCUUGUUUCUCCGUUUUCUUUGCCCAGCCAUUAUGUCUCCCAGUCUUUUCAACCUGAUGCAGGAAUAUCCUGAUGACCGCACAUCUCGGACACUAACUCUUAUUGCCAAGGUCAUUCAGAACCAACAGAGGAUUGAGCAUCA | 0.466 |
| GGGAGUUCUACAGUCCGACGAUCACACCAAAAGGUAAAGGCCGAGGGGCAAAGAAAAGGAAAGCAUCUGGCUCUGAAAAUGAAGGCGAUUAUAACCCUGGCAGGAAAACAUCCAAAACAACAAGCAAGAAACCGAAGAAGACACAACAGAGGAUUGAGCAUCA | 0.38 |
| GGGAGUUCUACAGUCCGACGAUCAUUGGAAUUGACAUGGAGAUAUCAAAAAAUUUUCAACGUAUACUUCAGAGGCAAGGAUUUAAGUUUAAACUGAAUACAAAAGUUACUGGUGCCACCAAGAAGUCAGAUGGAAAAAUUGAUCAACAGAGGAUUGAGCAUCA | 0.384 |
| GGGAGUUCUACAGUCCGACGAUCGGUAUUUUCCAGUGAAGACUAUCGCCAAGAAUGCAUAUCAUUCUGCUUAUUUUAUUCUAGUGGAUAAAAAUUCAACGUAUAUUUAAGUGUAUUUUUGACAUCUGUGCUUGUCCAACACAGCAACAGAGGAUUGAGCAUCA | 0.314 |
| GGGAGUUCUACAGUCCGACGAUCCUUUUUGGCCAUCUUUUAAAACUUUUUUUUUUUUUUUUGAUCUAUAAAAUAGACAAGAGAUAGUUCUACAAUGUCCAAGUCAUUCCAGCAGUCAUCUCUCGGUAGGGAUUCACAGGGUCACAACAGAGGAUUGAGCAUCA | 1.32 |
| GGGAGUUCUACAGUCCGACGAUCGCCGGGUCCUGAGUUGGAAGAGAAGGCGCUGGUGCUGAAGCAGCUUGGGGAGACGCUGACGGAGCUCAAGGCUCAUUUCCCAGGCCUGCAGAGUAAGAUGCGGGUGGUGCUGCGCGUGGACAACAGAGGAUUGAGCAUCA | 0.272 |
| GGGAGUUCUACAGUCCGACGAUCACCAAACUAUACACGUCUGCGCCCAACACAUCUCAGGGUAAAGAUAAUUCUGUCUUACUAGUUCUCAGCAGUGAUGAAAGCCAACAGUCUGAAAACAGUGAGAAUGAAGAGGAUACUUUACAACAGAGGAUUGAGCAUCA | 0.16 |

Series 4
Target: RNA binding protein fox-1 homolog 2, RRM domain, GST-SBP tag (RBFOX2, Homo sapiens, UniProt O43251-10, residues 100-194)
Technique: RNA Bind-n-Seq
Molecule type: RNA
Sample: in vitro
Tested at: 365 nM
Setting: natural RNA segment, single round, ends assumed
Reference: no-protein control
Reading: higher = stronger binding
Target sequence (chain): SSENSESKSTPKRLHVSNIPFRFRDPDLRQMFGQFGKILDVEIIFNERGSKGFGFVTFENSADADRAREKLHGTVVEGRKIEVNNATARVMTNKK
| Sequence | RBNS enrichment (R) |
| --- | --- |
| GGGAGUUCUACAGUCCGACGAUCGAAGUCGGCCCUCCCUGCUGGCAUAGACCUGAGUGCCAGUGCAGCUCAGCAGAGCACUGACACACACAGGAGACUUUUCUCGAUUAACCGCCCUGCCCGAGCAGCGUUCCUGGAAUUCUCGGGUGCCAA | 0.313 |
| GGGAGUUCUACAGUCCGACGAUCUUGUCUGUGGUGACCUGGGCAUGGGUGACAGGGCUCUCAUUUGCCCCUUGGUCUCUUUAUGCUGCUGAGUCCCCCUUUCCUGCCCUCCCUGGCUACUGGGUCAAUAAUCUUGGAAUUCUCGGGUGCCAA | 0.462 |
| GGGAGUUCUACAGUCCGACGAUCGGAGCACUCACAGGACUCACCCGGGUACGAAGAUUCCAACAGGAUGAUGCUCACAUAUUCUGUGCCAUGGAGCAGGUUGAAGAUGAAAUAAAAGGUUGUUUGGAUUUUCUUGGAAUUCUCGGGUGCCAA | 0.905 |
| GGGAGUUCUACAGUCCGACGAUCUCAGCUGCCUACAGUUUAAUAUGCAGCGUUCACAAAACAGCUGCCAGUGCUACAAUUAAUGAAGCAAAACUUAAUAUGUAAUCACAAUCUAAAUUAGCAUCAAUACUUUGUGGAAUUCUCGGGUGCCAA | 0.364 |
| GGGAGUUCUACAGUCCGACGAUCACGUGGAUCCAUCCCUGCCAUUGUGUGAGUCAGAGGGAUAGAUCUGAAGCCUGUGAAUGAUGUCUGGUACACCACAGUGUUUUCUCCAGAGAACUGGCCUAAGCUCUAGAUGGAAUUCUCGGGUGCCAA | 0.79 |
| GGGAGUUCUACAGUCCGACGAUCCUCUGCUUACAUACUUCCAGGGACGGUGAGCUCACGCUCUCUCCGGGCAGCCCUGUGAGUUUCCUAUCUGUUCCAGACUAGUAUCGCCAAUCUCUCCCAGCUCUCUUCUUUGGAAUUCUCGGGUGCCAA | 0.375 |
| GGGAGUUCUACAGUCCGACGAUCAGCAGAGUGGAAAAAUCUGUCUUUAUGGUAUGUUCUAGGUGUAUUGUGAUUUACUGUUAGAUUGCCAAUAUAAGUAAAUAUAGACAUAAUCUAUAUAUAGUGUUUCACAAUGGAAUUCUCGGGUGCCAA | 0.609 |
| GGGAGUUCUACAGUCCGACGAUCAAGAGAUAAAGAUGCCGGUUCCAACCAGAAGUUUGGGGAGCCUCAGGACAUGGCAUGCUUUGUGGAUCCCCAUGAUAGUCUACAAAAGCACCCCGCCCCUCUGGGCACUGUGGAAUUCUCGGGUGCCAA | 0.76 |
| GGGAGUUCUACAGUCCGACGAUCUCAAUCUCUACUAGGUUAUAAGUAGUAUACACAGAUUUACCCUGCCCUUGAACUUGAAGGACAUUAAAUUAUUAAUGAUCAUUUGGUAACAUGUUUACCUGAUUAUCUUCUGGAAUUCUCGGGUGCCAA | 0.328 |
| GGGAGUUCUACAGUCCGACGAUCAGGGCAAGUUCUCAGUACAGCCACCUUUGGACCCUUCGCCUUUAUGGUUCCCCUGCCCUCUCCCAUCUUUGAUUGGCUUGGUAUUUGGAGCUUCUGUUAACAUUAUAGAGUGGAAUUCUCGGGUGCCAA | 0.35 |
| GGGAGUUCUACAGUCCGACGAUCGCACAACCUUCUGACACGUGCCCUGUCUGAAGGUCGGAGUCACCAAUGUCCCUUCCAUUCAUCUCCCUUCCCCACGUGUGCUGCACAUCCCCAGACCAAAGAGGUUCUCGUGGAAUUCUCGGGUGCCAA | 0.734 |
| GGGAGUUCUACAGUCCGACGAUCUUUUUAACAAAUUUGCAUGUCAGUUUCUGUCAUGUUUAUUUAUUGGAUUCUCAGCUGCCUAAUCUGUACAUACCUGAUCCCUCGGGUUUUGUUUACAAGGAAUCUUGACUUGGAAUUCUCGGGUGCCAA | 0.212 |

Excerpt of the above (series 4):
| Sequence | RBNS enrichment (R) |
| --- | --- |
| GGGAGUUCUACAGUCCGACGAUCUCAAUCUCUACUAGGUUAUAAGUAGUAUACACAGAUUUACCCUGCCCUUGAACUUGAAGGACAUUAAAUUAUUAAUGAUCAUUUGGUAACAUGUUUACCUGAUUAUCUUCUGGAAUUCUCGGGUGCCAA | 0.328 |
| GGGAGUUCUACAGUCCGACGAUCAGGGCAAGUUCUCAGUACAGCCACCUUUGGACCCUUCGCCUUUAUGGUUCCCCUGCCCUCUCCCAUCUUUGAUUGGCUUGGUAUUUGGAGCUUCUGUUAACAUUAUAGAGUGGAAUUCUCGGGUGCCAA | 0.35 |
| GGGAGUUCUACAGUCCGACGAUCGCACAACCUUCUGACACGUGCCCUGUCUGAAGGUCGGAGUCACCAAUGUCCCUUCCAUUCAUCUCCCUUCCCCACGUGUGCUGCACAUCCCCAGACCAAAGAGGUUCUCGUGGAAUUCUCGGGUGCCAA | 0.734 |
